Earlier results, collected from citations in different studies.
Protocols differ between the studies behind these lines. ± gives the spread as reported.
ACHE: Acetylcholinesterase (ACHE, Homo sapiens, UniProt P22303)
Chain of UniProt P22303 (whole entry, looked up): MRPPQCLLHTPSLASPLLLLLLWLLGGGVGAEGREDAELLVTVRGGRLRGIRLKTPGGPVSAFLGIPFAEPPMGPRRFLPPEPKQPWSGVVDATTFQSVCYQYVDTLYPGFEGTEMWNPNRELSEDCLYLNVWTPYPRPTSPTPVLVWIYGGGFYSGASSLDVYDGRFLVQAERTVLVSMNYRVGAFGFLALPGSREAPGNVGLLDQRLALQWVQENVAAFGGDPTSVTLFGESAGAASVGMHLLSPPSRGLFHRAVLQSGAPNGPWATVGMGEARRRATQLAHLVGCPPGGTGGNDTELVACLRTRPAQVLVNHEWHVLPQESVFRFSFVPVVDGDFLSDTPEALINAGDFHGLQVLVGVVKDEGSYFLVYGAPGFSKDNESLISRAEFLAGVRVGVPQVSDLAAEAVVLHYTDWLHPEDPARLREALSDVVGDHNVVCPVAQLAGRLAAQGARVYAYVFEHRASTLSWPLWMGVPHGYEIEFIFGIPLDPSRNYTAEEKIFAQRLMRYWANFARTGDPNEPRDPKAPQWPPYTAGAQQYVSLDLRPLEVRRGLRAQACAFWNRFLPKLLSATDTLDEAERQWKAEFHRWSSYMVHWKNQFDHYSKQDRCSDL
HDAC1: Histone deacetylase 1 (HDAC1, Homo sapiens, UniProt Q13547)
Chain of UniProt Q13547 (whole entry, looked up): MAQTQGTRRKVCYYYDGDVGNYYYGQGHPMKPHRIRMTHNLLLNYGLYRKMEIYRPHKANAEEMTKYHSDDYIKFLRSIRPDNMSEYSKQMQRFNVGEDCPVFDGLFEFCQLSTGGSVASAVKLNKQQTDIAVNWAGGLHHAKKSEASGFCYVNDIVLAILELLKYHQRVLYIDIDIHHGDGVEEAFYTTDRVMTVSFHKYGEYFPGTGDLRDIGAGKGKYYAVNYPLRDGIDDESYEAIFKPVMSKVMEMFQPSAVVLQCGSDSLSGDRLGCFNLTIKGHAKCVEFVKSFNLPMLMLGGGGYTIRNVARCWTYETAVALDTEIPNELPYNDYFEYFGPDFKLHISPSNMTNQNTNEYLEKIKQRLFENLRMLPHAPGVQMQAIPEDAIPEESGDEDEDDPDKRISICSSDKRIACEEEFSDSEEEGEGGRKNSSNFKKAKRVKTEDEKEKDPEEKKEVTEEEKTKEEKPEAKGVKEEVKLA
Chain of UniProt P27338 (whole entry, looked up): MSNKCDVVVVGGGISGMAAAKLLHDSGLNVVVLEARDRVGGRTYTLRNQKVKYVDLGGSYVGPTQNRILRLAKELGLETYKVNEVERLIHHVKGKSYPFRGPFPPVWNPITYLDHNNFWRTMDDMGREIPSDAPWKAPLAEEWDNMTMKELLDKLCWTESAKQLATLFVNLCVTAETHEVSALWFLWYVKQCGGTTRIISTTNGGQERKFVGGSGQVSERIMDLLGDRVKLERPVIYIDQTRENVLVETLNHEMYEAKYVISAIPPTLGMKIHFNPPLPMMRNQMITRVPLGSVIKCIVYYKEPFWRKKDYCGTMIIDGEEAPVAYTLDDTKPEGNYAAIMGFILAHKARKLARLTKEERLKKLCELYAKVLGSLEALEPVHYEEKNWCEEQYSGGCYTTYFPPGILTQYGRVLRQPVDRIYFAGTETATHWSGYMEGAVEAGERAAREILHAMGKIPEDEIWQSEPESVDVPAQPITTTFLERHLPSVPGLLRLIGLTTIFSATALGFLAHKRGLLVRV
Chain of UniProt P41020 (whole entry, looked up): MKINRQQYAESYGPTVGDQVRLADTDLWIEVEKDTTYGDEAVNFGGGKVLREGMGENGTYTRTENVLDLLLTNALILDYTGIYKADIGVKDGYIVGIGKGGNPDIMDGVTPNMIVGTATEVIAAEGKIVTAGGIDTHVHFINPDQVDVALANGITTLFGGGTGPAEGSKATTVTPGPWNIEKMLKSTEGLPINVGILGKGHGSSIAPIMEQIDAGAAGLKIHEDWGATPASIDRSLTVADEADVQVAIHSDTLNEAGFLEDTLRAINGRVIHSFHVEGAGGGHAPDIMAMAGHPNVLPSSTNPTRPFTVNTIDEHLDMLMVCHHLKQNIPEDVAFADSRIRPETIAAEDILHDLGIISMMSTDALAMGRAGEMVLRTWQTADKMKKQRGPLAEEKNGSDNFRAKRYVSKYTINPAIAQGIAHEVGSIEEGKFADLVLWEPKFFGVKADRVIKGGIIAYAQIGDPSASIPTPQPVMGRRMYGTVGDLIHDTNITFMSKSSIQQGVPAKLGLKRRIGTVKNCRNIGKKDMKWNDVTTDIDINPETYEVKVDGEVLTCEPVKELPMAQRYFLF
Chain of UniProt P81908 (whole entry, looked up): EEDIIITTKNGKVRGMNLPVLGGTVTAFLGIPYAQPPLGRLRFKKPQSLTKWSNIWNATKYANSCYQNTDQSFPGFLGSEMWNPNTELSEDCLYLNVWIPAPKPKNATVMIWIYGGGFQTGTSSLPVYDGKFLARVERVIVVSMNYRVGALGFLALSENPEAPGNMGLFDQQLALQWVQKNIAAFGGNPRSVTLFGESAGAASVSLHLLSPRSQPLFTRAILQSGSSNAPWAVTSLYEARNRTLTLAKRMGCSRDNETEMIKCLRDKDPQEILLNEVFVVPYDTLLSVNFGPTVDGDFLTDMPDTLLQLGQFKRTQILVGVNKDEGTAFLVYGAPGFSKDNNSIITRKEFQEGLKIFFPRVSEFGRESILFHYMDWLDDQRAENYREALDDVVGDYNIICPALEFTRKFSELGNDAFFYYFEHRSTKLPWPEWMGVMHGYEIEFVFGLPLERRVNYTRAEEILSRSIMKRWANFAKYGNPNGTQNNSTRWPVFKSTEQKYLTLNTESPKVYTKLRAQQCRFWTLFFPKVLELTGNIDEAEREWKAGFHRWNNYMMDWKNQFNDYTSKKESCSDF
Chain of UniProt Q13393 (whole entry, looked up): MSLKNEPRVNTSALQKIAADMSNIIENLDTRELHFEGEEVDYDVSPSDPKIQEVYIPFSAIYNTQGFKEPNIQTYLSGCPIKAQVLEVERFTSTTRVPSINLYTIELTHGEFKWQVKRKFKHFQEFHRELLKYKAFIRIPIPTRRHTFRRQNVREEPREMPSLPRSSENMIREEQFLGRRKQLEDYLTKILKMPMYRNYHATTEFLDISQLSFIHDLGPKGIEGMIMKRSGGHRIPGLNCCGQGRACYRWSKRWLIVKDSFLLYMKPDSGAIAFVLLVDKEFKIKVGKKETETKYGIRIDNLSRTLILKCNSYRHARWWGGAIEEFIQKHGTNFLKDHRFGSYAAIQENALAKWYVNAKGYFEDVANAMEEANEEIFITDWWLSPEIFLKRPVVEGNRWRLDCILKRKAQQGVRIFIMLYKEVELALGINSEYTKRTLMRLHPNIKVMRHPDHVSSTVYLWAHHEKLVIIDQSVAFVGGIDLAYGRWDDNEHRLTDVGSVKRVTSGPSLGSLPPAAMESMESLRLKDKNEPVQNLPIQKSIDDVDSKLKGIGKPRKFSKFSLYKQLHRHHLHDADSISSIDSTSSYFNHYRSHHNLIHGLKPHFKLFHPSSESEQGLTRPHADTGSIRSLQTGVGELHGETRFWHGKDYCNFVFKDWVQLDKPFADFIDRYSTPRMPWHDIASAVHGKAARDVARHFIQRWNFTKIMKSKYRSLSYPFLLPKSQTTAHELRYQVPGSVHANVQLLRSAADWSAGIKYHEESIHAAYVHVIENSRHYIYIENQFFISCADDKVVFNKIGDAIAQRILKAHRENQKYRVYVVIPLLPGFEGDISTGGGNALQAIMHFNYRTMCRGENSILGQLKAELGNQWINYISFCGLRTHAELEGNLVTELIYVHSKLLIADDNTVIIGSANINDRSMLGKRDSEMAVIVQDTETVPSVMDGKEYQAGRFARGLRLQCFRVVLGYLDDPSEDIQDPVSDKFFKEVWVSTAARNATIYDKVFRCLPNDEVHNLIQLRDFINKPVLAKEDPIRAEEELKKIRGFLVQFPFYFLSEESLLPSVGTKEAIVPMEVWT

Structure (SMILES) | target | read-out | action | strain | medium | with | IC50
COc1ccc2c(c1OC)CO/C(=C\c1cc[n+](Cc3ccc(F)cc3)cc1)C2=O | ACHE | enzyme activity | inhibitor |  |  |  | 0.00893 µM
Cc1cn(C2CCC(OC(C(=O)O)P(=O)(O)O)C2)c(=O)[nH]c1=O (racemic) | Gag-Pol polyprotein, reverse transcriptase (gag-pol, Human immunodeficiency virus type 1 group M subtype B, UniProt P04585) |  |  |  |  |  | 0.41 µM
O=C(CS)NCCCCCCn1ccc2cc(Cl)c(Cl)cc21 | HDAC1 |  | inhibitor |  |  |  | > 30 µM
CC(C)C[C@@H]1NC(=O)[C@H](Cc2ccc(O)cc2)NC(=O)[C@H](CC(N)=O)NC(=O)[C@H](CO)NC(=O)[C@@H](NC(=O)[C@@H]2CCCN2C(=O)[C@H](CC(N)=O)NC(=O)[C@H](Cc2ccc(O)cc2)NC(=O)[C@H](CCCCN)NC(=O)[C@H](CO)NC(=O)[C@H](C)NC(=O)[C@@H](N)CC(N)=O)CSC1=O | Accessory gene regulator protein C (Staphylococcus epidermidis, UniProt O86861) | agr reporter | antagonist | group-I reporter strain |  |  | 0.00964 µM
O=C(c1ccc(Br)cc1)[C@H]1[C@H](c2cn(-c3ccccc3)nc2-c2ccccc2)C2CC3CCCCC3N2[C@]12C(=O)Nc1ccc(Cl)cc12 (stereo partly shown) | EGFR (Homo sapiens, UniProt P00533) | enzyme activity | inhibitor |  |  |  | 0.0966 µM
CNC12CC3CC(CC(C1)c1ccccc13)O2 | NMDA receptor |  | inhibitor |  |  |  | 6 µM
C#CCNc1ccc(/C=C2\SC(=O)N(CN(C)CCC(Oc3ccc(C(F)(F)F)cc3)c3ccccc3)C2=O)cc1 (stereo not shown) | MAOA (Homo sapiens, UniProt P21397) |  | inhibitor |  |  |  | 0.181 µM
CP(=O)(O)CN | Urease subunit alpha (Sporosarcina pasteurii, UniProt P41020) | enzyme activity | inhibitor |  |  |  | 1100 ± 10.5 µM
C[C@@H](NC(=O)[C@@H](N)Cc1ccc(O)cc1)C(=O)NCC(=O)N[C@@H](Cc1ccccc1)C(=O)N1CCN(C(=O)[C@H](Cc2ccccc2)NC(=O)CNC(=O)[C@@H](C)NC(=O)[C@@H](N)Cc2ccc(O)cc2)CC1 | δ-opioid receptor, mouse | muscle contraction |  |  | mouse vas deferens |  | 0.0093 ± 0.0004 µM
CN1CCC2(CC1)c1ccccc1N(Cc1ccc(C(=O)NO)cc1)C2c1cccc(Cl)c1 (stereo not shown) | Histone deacetylase 8 (Schistosoma mansoni, UniProt A5H660) |  | inhibitor |  |  | Fluor-de-Lys substrate 50 µM | 4.36 ± 2.34 µM
O=C(CS)NCCCCCNc1cccc2cccnc12 | HDAC1 |  | inhibitor |  |  |  | 4.7 µM
CC/C(=C(\c1ccccc1)c1ccc(OCCN(C)C)cc1)c1ccccc1 | Phospholipase D1 (Homo sapiens, UniProt Q13393) |  |  |  |  |  | no effect
CC1(C)CC(=O)C2=C(C1)N=c1sc(=Cc3ccc(OCCNCCc4c[nH]c5ccccc45)cc3)c(=O)n1C2c1c[nH]c2ccccc12 (stereo not shown) | MAOB (Homo sapiens, UniProt P27338) |  | inhibitor |  |  |  | 0.33 µM
O=C(CS)NCCCCCCn1ccc2cc(F)c(Cl)cc21 | HDAC6 (Homo sapiens, UniProt Q9UBN7) |  | inhibitor |  |  |  | 0.065 µM
CN(C)c1ccc(/C=C/C(=O)c2ccc(OC(=O)N3CCCC3)cc2O)cc1 | monoamine oxidase B | enzyme activity | inhibitor |  |  |  | 0.29 µM
CC(CCC(=O)O)C1CCC2C3CCC4CC(OC(=O)C(N)CC(=O)O)CCC4(C)C3CCC12C (stereo not shown) | Sialyltransferase ST3Gal-I (Rattus norvegicus, UniProt Q6H8N0) | enzyme activity | inhibitor |  |  |  | 39 ± 1 µM
C=CC(=O)N1CCC[C@@H](n2nc(-c3cn(C)c4ccccc34)c3c(N)ncnc32)C1 | EGFR (Homo sapiens, UniProt P00533, L858R/T790M) |  |  |  |  |  | 0.0025 ± 0.0014 µM
CS(=O)(=O)Nc1ccc(-c2cncc(-c3cccc4[nH]ccc34)c2)cc1 | PIKFYVE (Homo sapiens, UniProt Q9Y2I7) |  |  |  |  |  | 10 µM
O=c1cc(Cc2ccc(-c3ccccc3)cc2)c2cccnc2n1O | HIV-1 RNase H |  | inhibitor |  |  |  | 0.64 µM
COc1cc(/C=C/c2nnc(-c3ccc(C(F)(F)F)cc3)o2)ccc1O | Cholinesterase (BCHE, Equus caballus, UniProt P81908) |  |  |  |  |  | 0.186 ± 0.005 µM
CN1CCC2(CC1)c1ccccc1N(Cc1ccc(C(=O)NO)cc1)C2c1ccc(Cl)cc1 (stereo not shown) | HDAC8 (Homo sapiens, UniProt Q9BY41) |  | inhibitor |  |  | Fluor-de-Lys substrate 50 µM | 3.45 ± 2.14 µM
CC1(C)C=Cc2c(ccc(C(=O)/C=C/c3ccc(O)cc3)c2O)O1 | ACHE |  |  |  |  |  | 20.4 µM

Excerpt of the above:
Structure (SMILES) | target | read-out | action | strain | medium | with | IC50
CC1(C)C=Cc2c(ccc(C(=O)/C=C/c3ccc(O)cc3)c2O)O1 | ACHE |  |  |  |  |  | 20.4 µM
C[C@@H](NC(=O)[C@@H](N)Cc1ccc(O)cc1)C(=O)NCC(=O)N[C@@H](Cc1ccccc1)C(=O)N1CCN(C(=O)[C@H](Cc2ccccc2)NC(=O)CNC(=O)[C@@H](C)NC(=O)[C@@H](N)Cc2ccc(O)cc2)CC1 | δ-opioid receptor, mouse | muscle contraction |  |  | mouse vas deferens |  | 0.0093 ± 0.0004 µM
O=C(c1ccc(Br)cc1)[C@H]1[C@H](c2cn(-c3ccccc3)nc2-c2ccccc2)C2CC3CCCCC3N2[C@]12C(=O)Nc1ccc(Cl)cc12 (stereo partly shown) | EGFR (Homo sapiens, UniProt P00533) | enzyme activity | inhibitor |  |  |  | 0.0966 µM
CN1CCC2(CC1)c1ccccc1N(Cc1ccc(C(=O)NO)cc1)C2c1ccc(Cl)cc1 (stereo not shown) | HDAC8 (Homo sapiens, UniProt Q9BY41) |  | inhibitor |  |  | Fluor-de-Lys substrate 50 µM | 3.45 ± 2.14 µM
